Results from different studies.
Each numbered part is a random draw from the data of one study; scales do not carry over between parts.

Set 1 — method: protein-binding microarray; form: double-stranded DNA, one strand shown; sample: in vitro; tested at: 940 nM top; setting: 60-bp whole probe; with: salmon DNA 0.4 mg/ml; reference: random background probes; reading: higher = stronger binding; measurement: fitted relative affinity; shared flanks, not repeated: GCCTAGCAC … GTCTTGATTCGCTTGACGCTGCTG
Target: Interferon regulatory factor 5, full length, phosphomimetic (IRF5, Homo sapiens, UniProt Q13568-2, residues 1-514, S451D/S453D/S456D/S462D)
GACGATATCGGGACTAGAGACGTGCTA: -0.313 z-score
TTAGGTTACGGGACTGGGTTAGTGCTA: 0.192 z-score
TCAAAAATGATGTTTTAGACTGTGCTA: -0.487 z-score
TTAGGTATCGATTATCGGTTAGTGCTA: 9.54 z-score
GACGATACCAGTCTCGAGACGTGCTAG: 2.13 z-score
GACGAACTGGGGTTTCGAGAGGTGCTA: 1.71 z-score
GACGGACTGGGGTTTCGGGAAGTGCTA: 1.83 z-score
GACGGACTACTACTGCTGACGTGCTAG: -0.0832 z-score
TTAGGTTTCCTTTCCCTGTAGTGCTAG: 2.29 z-score
TGTGGTGCAGCTCCCTCCTCGTGCTAG: -0.533 z-score
GACGGTAGCGGTCTCGGGACGTGCTAG: 0.553 z-score
TATTTTTTTGTAATCGAAATGTGCTAG: 0.344 z-score
TTAGGTCTCGTACTGGGTTAGTGCTAG: 0.803 z-score
GACGGACTGGCTCTCGGGACGTGCTAG: -0.251 z-score
GACGATATCAGTCTTGAGACGTGCTAG: -0.0945 z-score
TTAGGTATCGGGGTTCGGTTAGTGCTA: 4.49 z-score
GACGATTTCAGTTCCGAAACGTGCTAG: 0.874 z-score
TTAGGGCTCCTTCTCCTTTAGTGCTAG: -0.0702 z-score
GACCGACTGCTACTGCTGACGTGCTAG: -0.501 z-score

Set 2 — method: RNA Bind-n-Seq; form: RNA; sample: in vitro; tested at: not given; setting: RNA with constant flanks, ends assumed; reference: input RNA pool; reading: higher = stronger binding; measurement: bound/input enrichment
Target: RING finger protein unkempt homolog, zinc fingers 1-6, GST-SBP tag (UNK, Homo sapiens, UniProt Q9C0B0, residues 30-357)
Sequence of UniProt Q9C0B0 (30-357, looked up): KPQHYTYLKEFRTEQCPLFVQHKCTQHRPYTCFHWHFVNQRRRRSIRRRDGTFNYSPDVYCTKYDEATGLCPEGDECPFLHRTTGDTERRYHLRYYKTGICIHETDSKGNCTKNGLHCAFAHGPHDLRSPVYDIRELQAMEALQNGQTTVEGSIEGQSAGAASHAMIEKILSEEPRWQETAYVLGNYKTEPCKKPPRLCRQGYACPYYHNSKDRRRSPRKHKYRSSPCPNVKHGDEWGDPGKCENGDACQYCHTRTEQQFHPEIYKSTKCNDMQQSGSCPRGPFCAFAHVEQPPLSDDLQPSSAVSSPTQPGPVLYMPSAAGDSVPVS
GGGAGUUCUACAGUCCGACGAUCUACGGCAAAGGCAAGAGUAACAGCAGCGCCGUCCCGUCCGACAGCCAGGCCCGGGAGAAGUCCGCACUCUACGUAUAUGAAUAUCUGCUCCAUGUAGGAGCUCAGAAAUCAGCUCAAACACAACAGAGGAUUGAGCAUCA: 0.115 ratio
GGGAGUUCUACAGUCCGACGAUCCCAAGUGGACUGUUUCUGGCCUCGAGUCCGCUGCUGCCCAGCAUACACUUCUGGAGCAGCCUCCGUCCUGUCGCCCCACUGAGUCCUGCCAGGCUGCAAGGGCCGAACACACUUUUCCAGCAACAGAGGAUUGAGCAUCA: 0.122 ratio
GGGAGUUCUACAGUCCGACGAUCCCAGGCCCAGCCAAGUCAGAGUUUGACUUAGCAACUAUUUCUAGAAUUUUUUCAGCUCUUUCCGUGACAGCUUUUAAACCAUCAAUCUUUUUGUUUUGUUUUUUUGUUUUUCAAGACACGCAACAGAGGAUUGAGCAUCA: 11 ratio
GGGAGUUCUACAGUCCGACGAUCUUAGAUGUGACUGUACAGUCCUUUGGAUGGUCUGAUAGAGCAAAGGUAAAAACAGAUGAUACCGCAAGAAUUUAUCAGCCUAAGCGUUAUGCUUUGUCACCCAAGACAACGAUUACAAUGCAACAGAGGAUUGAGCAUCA: 0.205 ratio
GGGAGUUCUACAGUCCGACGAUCCCUCUGCUUCCGCACUCCCCUGCCUGCCUUUUGGCAACAUUUUUUUUCUUAUUUUUUUUUAACCGUGUAUAUUUUUUUUCUUUUUCUUUUUUUCUUUUUUUUUUUUAAGAAAAAAACAAACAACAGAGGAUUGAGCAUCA: 30.6 ratio
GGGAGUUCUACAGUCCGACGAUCUUAUAUCUUUCUGUCAUUCGAAAGAUACCAGCCUUGACUGAAAAUGACCCUGAAACUUGGACCGUUUGUAAUUUUUCUGUGGAUCAUGACAGUGCUCCUCUAAACAACCGAUGUGUCCGUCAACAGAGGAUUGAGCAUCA: 0.154 ratio
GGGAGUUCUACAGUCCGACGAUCUAAUAAAAACUGGAGAAAUAGGAAUUUGUGAACUCCUAAAAUUGUAGCAACUUUGAAAGGUCCGUGUUUUAUUUACCUGACAAAUGGAAGUUAUAGAAGUCUAAUAAUGUUAAGCACCAGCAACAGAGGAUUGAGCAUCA: 1.93 ratio
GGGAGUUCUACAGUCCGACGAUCUCAGCCAUUGGUGUGCACUCAUCUUUAGCACCAUUGGUGAAAAUUCUCGAGAGCUGUGGAACCGAGUCAAAGAUUGAGCCAGAAGUCAAUGACUCCCUGGGGGUUUACUGCAUUGAUGCCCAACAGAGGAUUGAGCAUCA: 0.275 ratio

Set 3 — method: RNA Bind-n-Seq; form: RNA; sample: in vitro; tested at: 365 nM; reference: no-protein control; reading: higher = stronger binding; measurement: RBNS enrichment (R)
Target: RNA binding protein fox-1 homolog 2, RRM domain, GST-SBP tag (RBFOX2, Homo sapiens, UniProt O43251-10, residues 100-194)
Setting: natural RNA segment, single round, ends assumed
Construct (chain): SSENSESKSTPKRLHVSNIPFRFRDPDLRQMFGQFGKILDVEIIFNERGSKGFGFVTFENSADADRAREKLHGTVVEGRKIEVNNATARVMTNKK
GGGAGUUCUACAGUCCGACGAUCGUUUUUGAAGUACAUCUUCUGGCCCCUUGAGUACUGCCAGAGGCAAAAGAUGUUUGUUUCUUAUUCAUUCCACUUUUGUCUCCUGGGAUCCCUUCUGUAGCCUAAAGUAUUGGAAUUCUCGGGUGCCAA: 0.554
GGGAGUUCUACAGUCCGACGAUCGAAACUGAGUGAGUCGGAUUCCUCCAGGCCAGGUCUUCCCAGAACAGAGUCAGCCUCUAGUAGACCCUGCUCUUUUGCCCCUGGGGCGGGGAGGGUUGGCAGUGGUGGGGUGGAAUUCUCGGGUGCCAA: 0.463
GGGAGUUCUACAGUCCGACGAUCCAUGCAUCCUAGCCAGUGAGUGCUACAUCCUUUGCAAGUGGAGUUACUGGCCUACCCUUACCCCAUGCAUUCUUCCUGUCUGCACUGCCUGGGCCAAGGGGCAGAAACACUGGAAUUCUCGGGUGCCAA: 1.84
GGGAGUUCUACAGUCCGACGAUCGUCAGGAGGGCUCAGCCCAGGAGCAGGUGGCCCUGGGGUGCAUGUCAGCCAGGGGCCAGUCAGCCCAGCAGUCUCCCCUGCUCCCUGACAUGAGUUCCUAAAGGGCACUGUGGAAUUCUCGGGUGCCAA: 2.25
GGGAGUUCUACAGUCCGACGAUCGCCAGCCUCCAGUGCUGUCGAGAGACCACCUUCCCCCGACCCGGAGGCACUUCCUUGGGGUCUUUCUCUAGGGUCUCUUCUCUACAAAGCACAACACUAAUGUUCGUUUCUGGAAUUCUCGGGUGCCAA: 0.29
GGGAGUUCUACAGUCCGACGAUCGGAAGCUGCACAUCUGCCCACUGAGCUUUGGUGAAAGGUCCAGAGGCUUUGGGGACCUCUGUUCCUGGGCCACCCUGCCCGUGGGCACCCUCUACCUUGGGGCACGUUCUUGGAAUUCUCGGGUGCCAA: 1
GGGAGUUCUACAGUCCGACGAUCUGAAGCACCCGUGACUGCAACCCGGGCGGUUGUUGCUAGAGCCUUGCCAGUCCUUGGAAGAAGAGUUCAUCUGGGUCUGAUUGACUGUAGAGAUUUGACACGUUCAUAAAUGGAAUUCUCGGGUGCCAA: 0.645
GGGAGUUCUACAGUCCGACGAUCCAUGUGUCAGAUCUGCAUGCAUUGCUUGCAUUUUUCUGGUAUCUGAAUGUUGGUUCCUUGUUCCAGGAAUUCAACAUUAAUUUCCAAAAGUAUCAUGGGACUUGUGACAAUGGAAUUCUCGGGUGCCAA: 0.878

Set 4 — method: protein binding microarray; form: double-stranded DNA, one strand shown; sample: in vitro; tested at: not given; reference: not given; reading: higher = stronger binding; measurement: E-score
Target: Histone acetyltransferase KAT6A, winged helix 1, GST fusion (KAT6A, Homo sapiens, UniProt Q92794, residues 1-85)
Setting: 8-mer, flanks averaged, mean of 2 arrays, mostly near background
Construct (chain): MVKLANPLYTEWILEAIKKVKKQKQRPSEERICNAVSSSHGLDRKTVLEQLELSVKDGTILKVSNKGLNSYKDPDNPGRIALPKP
CACATTGG: -0.19
ACAATTTC: -0.186
CTCATACC: -0.19
CGTATGAA: 0.116
TAACCAAA: -0.22
CTGAGATC: -0.0966
AAGAAATA: -0.186
ACCCATCA: -0.12
GCGCAACC: 0.274
CAGAGTTC: -0.191
AAACGCAT: 0.0953
AGGAATAC: -0.195
ATGAGCCG: 0.0531
ACCACAAC: -0.138
ATGCACAC: -0.0743
ACTACTGA: -0.0628
CTTGCCCA: -0.275
AATTCGGA: 0.0534
GGCGCAAA: 0.256
CTAAAGAA: -0.00064
TAAGGGTA: -0.0594
CGGACGGC: 0.451
ACGCATCT: -0.0103
CCGAATCA: -0.0362
AGCCACTC: -0.199
